# Results collected from several papers.
# A part holds a random share of what one study measured. Several values in a cell are separate wells, animals, samples, runs or records.
# Sequence of UniProt P48729 (whole entry, looked up): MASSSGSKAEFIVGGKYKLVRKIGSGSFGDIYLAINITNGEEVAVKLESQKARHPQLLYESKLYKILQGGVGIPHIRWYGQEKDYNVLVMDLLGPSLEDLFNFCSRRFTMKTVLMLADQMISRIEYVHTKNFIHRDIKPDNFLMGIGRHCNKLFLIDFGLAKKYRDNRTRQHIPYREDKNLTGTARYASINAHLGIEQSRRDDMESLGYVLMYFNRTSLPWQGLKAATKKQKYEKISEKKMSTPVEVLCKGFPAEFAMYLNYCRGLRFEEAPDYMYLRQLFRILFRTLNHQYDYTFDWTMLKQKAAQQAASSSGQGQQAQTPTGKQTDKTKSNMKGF
# Sequence of UniProt P54756 (whole entry, looked up): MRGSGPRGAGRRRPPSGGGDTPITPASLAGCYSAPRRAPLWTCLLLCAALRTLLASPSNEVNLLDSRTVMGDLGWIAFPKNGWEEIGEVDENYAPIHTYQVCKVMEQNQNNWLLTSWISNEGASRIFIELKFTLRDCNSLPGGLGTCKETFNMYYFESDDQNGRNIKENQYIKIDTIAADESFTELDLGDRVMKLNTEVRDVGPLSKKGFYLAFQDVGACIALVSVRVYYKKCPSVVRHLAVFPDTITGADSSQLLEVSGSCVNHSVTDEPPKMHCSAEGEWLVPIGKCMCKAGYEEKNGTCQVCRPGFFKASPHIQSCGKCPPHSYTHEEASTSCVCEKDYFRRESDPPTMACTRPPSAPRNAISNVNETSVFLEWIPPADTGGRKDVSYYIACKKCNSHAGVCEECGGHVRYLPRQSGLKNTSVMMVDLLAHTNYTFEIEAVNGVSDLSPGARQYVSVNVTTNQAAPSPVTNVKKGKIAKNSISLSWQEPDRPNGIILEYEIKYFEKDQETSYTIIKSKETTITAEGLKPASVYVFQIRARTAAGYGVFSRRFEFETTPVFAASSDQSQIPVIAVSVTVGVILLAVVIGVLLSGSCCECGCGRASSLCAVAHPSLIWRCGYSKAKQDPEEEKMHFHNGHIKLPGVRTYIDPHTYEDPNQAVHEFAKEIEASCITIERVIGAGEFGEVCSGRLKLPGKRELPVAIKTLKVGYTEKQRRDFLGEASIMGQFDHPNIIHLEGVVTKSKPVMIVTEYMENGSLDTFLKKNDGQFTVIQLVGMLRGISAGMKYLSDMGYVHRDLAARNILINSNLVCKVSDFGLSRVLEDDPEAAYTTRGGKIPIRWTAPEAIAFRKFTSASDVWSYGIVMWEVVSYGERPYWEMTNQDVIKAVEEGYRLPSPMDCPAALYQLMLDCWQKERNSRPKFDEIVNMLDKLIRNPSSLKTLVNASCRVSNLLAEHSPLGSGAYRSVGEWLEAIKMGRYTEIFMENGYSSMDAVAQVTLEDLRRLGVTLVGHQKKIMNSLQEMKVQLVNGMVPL
# Sequence of UniProt Q7KZI7 (whole entry, looked up): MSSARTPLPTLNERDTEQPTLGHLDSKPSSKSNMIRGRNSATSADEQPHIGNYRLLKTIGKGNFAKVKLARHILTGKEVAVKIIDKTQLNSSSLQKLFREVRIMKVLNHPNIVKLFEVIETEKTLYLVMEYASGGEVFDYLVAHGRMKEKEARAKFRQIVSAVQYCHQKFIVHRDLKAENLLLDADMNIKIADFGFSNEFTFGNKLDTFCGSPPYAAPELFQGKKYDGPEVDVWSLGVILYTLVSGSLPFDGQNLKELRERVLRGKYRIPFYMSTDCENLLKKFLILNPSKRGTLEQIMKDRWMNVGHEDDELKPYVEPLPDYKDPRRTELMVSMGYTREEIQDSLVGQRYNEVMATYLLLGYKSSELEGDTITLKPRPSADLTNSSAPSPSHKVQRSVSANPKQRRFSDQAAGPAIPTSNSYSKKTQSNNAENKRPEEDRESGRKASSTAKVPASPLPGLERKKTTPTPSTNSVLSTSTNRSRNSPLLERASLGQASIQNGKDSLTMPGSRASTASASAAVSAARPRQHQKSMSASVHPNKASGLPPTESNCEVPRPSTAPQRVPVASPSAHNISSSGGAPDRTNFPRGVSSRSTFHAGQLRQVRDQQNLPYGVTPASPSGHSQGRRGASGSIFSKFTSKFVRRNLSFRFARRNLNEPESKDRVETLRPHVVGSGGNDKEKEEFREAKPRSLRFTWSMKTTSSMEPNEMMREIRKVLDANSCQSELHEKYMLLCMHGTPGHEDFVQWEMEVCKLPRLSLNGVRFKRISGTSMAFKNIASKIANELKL
# Sequence of UniProt Q9NWZ3 (whole entry, looked up): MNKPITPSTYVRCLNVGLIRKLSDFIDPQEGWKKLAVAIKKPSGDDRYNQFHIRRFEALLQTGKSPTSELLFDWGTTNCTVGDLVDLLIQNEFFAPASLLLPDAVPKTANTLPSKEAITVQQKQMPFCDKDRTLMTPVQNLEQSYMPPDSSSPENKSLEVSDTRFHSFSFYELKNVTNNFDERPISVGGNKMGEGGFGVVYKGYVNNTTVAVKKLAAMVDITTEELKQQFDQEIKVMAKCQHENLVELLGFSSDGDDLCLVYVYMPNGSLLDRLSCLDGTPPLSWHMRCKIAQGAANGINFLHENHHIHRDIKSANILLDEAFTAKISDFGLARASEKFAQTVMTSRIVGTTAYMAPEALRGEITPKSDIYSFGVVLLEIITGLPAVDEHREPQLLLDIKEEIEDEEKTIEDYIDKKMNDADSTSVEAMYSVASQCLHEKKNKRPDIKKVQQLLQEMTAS
# Sequence of UniProt P68400 (whole entry, looked up): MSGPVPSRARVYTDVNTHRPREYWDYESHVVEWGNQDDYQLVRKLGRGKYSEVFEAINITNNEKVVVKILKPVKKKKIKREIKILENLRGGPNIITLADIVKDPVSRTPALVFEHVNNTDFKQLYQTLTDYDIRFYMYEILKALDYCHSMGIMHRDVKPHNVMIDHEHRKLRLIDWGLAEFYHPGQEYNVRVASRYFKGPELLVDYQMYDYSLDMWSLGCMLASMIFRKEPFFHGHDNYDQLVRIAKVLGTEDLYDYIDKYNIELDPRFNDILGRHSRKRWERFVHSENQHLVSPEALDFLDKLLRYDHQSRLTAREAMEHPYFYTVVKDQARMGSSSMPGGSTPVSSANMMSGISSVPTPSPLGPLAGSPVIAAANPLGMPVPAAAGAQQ
# Sequence of UniProt Q9HBH9 (whole entry, looked up): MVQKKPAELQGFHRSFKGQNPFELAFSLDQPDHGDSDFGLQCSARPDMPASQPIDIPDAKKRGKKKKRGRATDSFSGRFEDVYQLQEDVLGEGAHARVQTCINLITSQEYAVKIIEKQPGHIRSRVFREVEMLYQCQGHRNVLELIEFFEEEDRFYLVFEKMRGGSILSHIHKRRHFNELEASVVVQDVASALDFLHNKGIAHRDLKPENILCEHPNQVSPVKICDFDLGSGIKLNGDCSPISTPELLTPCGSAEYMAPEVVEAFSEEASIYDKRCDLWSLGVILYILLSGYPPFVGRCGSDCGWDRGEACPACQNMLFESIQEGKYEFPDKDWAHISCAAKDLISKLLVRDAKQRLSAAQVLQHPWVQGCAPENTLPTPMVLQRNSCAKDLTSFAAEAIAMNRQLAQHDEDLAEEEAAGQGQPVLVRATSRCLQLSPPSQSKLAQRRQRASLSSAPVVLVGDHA
# Sequence of UniProt Q06187 (whole entry, looked up): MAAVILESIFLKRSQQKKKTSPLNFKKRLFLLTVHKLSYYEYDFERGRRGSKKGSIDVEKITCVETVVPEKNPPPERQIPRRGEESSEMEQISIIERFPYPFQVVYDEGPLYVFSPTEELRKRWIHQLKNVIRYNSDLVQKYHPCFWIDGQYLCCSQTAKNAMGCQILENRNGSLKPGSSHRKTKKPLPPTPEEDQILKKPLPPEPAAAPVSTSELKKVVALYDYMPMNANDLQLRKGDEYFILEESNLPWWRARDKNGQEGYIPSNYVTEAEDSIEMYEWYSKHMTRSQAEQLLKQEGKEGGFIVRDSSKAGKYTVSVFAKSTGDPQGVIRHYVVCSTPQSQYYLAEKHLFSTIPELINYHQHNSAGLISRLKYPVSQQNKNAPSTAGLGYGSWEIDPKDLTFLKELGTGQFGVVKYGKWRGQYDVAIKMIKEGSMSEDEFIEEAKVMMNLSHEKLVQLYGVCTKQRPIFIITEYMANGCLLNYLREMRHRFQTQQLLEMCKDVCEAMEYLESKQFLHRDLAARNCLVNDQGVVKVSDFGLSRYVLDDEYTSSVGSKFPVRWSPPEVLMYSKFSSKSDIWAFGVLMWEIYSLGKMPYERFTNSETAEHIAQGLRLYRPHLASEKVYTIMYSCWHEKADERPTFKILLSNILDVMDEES
# Sequence of UniProt P52564 (whole entry, looked up): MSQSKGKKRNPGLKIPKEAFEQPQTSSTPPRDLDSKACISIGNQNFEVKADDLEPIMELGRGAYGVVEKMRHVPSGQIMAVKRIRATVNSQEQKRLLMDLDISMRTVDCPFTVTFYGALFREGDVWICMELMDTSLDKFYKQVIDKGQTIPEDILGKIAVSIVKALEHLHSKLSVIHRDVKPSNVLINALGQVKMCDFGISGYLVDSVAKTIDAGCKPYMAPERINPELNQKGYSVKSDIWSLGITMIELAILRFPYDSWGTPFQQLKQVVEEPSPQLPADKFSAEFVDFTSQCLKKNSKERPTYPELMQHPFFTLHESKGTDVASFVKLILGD
# Sequence of UniProt Q8IY84 (whole entry, looked up): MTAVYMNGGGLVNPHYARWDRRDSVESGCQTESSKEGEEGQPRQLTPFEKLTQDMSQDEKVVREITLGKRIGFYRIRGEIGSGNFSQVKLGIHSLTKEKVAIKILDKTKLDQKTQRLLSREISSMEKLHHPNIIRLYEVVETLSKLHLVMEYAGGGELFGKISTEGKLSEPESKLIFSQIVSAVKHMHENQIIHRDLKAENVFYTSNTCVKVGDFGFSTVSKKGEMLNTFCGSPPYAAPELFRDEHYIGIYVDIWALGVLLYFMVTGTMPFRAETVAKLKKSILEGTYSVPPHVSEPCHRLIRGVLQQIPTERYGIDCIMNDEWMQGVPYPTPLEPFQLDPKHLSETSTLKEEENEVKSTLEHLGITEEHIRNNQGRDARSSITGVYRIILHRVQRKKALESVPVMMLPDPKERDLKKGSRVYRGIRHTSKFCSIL

# Block 1 — organism: Sarcocystis neurona; read-out: parasite growth; tested at: 10 µM; time: 96 h; setting: first screen
Structure (SMILES),inhibition
CCOC(=O)C1=C(COCCN)NC(C)=C(C(=O)OC)C1c1ccccc1Cl (stereo not shown),-2.3%
CN(C)CC[C@@H](c1ccc(Cl)cc1)c1ccccn1,-10.3%
Nc1nc2c(ncn2COCCO)c(=O)[nH]1,-12.7%
CC/C(=C(\c1ccccc1)c1ccc(OCCN(C)C)cc1)c1ccccc1,21.5%
CN(C)CCCSc1ccccc1NC(=O)/C=C/c1ccccc1,25.1%
CC(=O)CCCCn1c(=O)c2c(ncn2C)n(C)c1=O,-8%
CCCN1C[C@H](CSC)C[C@@H]2c3cccc4[nH]cc(c34)C[C@H]21,-4%
COc1cc(C(=O)NS(=O)(=O)c2ccccc2C)ccc1Cc1cn(C)c2ccc(NC(=O)OC3CCCC3)cc12,12.9%
CN(C)CCCN1c2ccccc2CCc2ccccc21,-7.1%
Cc1cc2c(s1)Nc1ccccc1N=C2N1CCN(C)CC1,8.5%

# Block 2 — cell line: mouse MPNST tumor cells; technique: high-content nuclear imaging; refers to: cell number; tested at: 10 µM; time: 12 h; setting: mean of 2 replicates; relative to: plate mean; reading: higher = more cells
Compound,nuclei count
CCCCN(CC)c1nc(C)nc2c1c(C)cn2-c1c(C)cc(C)cc1C,3.06 z-score
O=C1NCCCc2c1oc1ccc(O)cc21,4.38 z-score
Cc1cc(NC(=O)Nc2ccc(N(C)C)cc2)c2cc(F)cc(F)c2n1,0.157 z-score
CCOc1ccc2nc(S(N)(=O)=O)sc2c1,-1.11 z-score
CC(=O)Oc1cc(C(F)(F)F)ccc1C(=O)O,0.148 z-score
Cc1c(N)c(=O)n(-c2ccccc2)n1C,3.11 z-score
C[C@H]1O[C@H](O[C@H]2[C@H](O)[C@@H](O)[C@@H](O[C@H]3[C@H](O)[C@@H](O)C(O)O[C@@H]3CO)O[C@@H]2CO)[C@H](O)[C@@H](O)[C@@H]1N[C@H]1C=C(CO)[C@@H](O)[C@H](O)[C@H]1O (stereo partly shown),0.81 z-score and 1.71 z-score and 2.16 z-score
C[C@H](NC[C@H](O)CP(=O)(O)CC1CCCCC1)c1ccc(Cl)c(Cl)c1,-0.0137 z-score
NC(=O)c1cccnc1,0.0741 z-score
CCOc1cc(N)c(Cl)cc1C(=O)NCC1CN(Cc2ccc(F)cc2)CCO1 (stereo not shown),2.16 z-score

# Block 3 — SMILES: CC(=O)c1ccc(N2CCOCC2)cc1O; read-out: enzyme activity; mode: inhibitor; tested at: 0.5 µM; relative to: control
target,remaining activity [%]
"AKT3 (Homo sapiens, UniProt Q9Y243)",107
"CSNK1A1 (Homo sapiens, UniProt P48729)",110
"EPHA5 (Homo sapiens, UniProt P54756)",109
"LYN (Homo sapiens, UniProt P07948)",106
"CSNK2A1 (Homo sapiens, UniProt P68400)",101
"MAPK13 (Homo sapiens, UniProt O15264)",104
"BTK (Homo sapiens, UniProt Q06187)",108
"NEK4 (Homo sapiens, UniProt P51957)",103
"MAP2K6 (Homo sapiens, UniProt P52564)",94.2
"MKNK2 (Homo sapiens, UniProt Q9HBH9)",90.7

# Block 4 — read-out: cell-free assay; technique: competition with immobilised ligand; tested at: 1 µM
# Structure (SMILES): O=C(O)c1cc(-c2ccc(C3CCNCC3)cc2)c2ccc(-c3ccc(C(F)(F)F)cc3)cc2c1
target,remaining binding [%]
"Tyrosine-protein kinase ABL1, non-phosphorylated (ABL1, Homo sapiens, UniProt P00519, Q252H)",100
"ACVR1 (Homo sapiens, UniProt Q04771)",100
"IRAK4 (Homo sapiens, UniProt Q9NWZ3)",100
"Non-receptor tyrosine-protein kinase TYK2, JH2 (TYK2, Homo sapiens, UniProt P29597)",100
"RET (Homo sapiens, UniProt P07949, V804L)",88
"MAPK10 (Homo sapiens, UniProt P53779)",100
"Ribosomal protein S6 kinase alpha-5, N-terminal kinase domain (RPS6KA5, Homo sapiens, UniProt O75582)",100
"TAOK2 (Homo sapiens, UniProt Q9UL54)",100
"NIM1K (Homo sapiens, UniProt Q8IY84)",94
"ITK (Homo sapiens, UniProt Q08881)",100
"PRKD2 (Homo sapiens, UniProt Q9BZL6)",100
"MARK2 (Homo sapiens, UniProt Q7KZI7)",100
"COQ8B (Homo sapiens, UniProt Q96D53)",100

# Excerpt of the above (block 1):
Structure (SMILES),inhibition
CN(C)CCCSc1ccccc1NC(=O)/C=C/c1ccccc1,25.1%
CC(=O)CCCCn1c(=O)c2c(ncn2C)n(C)c1=O,-8%
CCCN1C[C@H](CSC)C[C@@H]2c3cccc4[nH]cc(c34)C[C@H]21,-4%
COc1cc(C(=O)NS(=O)(=O)c2ccccc2C)ccc1Cc1cn(C)c2ccc(NC(=O)OC3CCCC3)cc12,12.9%
CN(C)CCCN1c2ccccc2CCc2ccccc21,-7.1%
Cc1cc2c(s1)Nc1ccccc1N=C2N1CCN(C)CC1,8.5%
